Experimental data gathered from unrelated publications.
Each numbered part is a random draw from the data of one study; scales do not carry over between parts.
UniProt Q15418, sequence (whole entry, looked up): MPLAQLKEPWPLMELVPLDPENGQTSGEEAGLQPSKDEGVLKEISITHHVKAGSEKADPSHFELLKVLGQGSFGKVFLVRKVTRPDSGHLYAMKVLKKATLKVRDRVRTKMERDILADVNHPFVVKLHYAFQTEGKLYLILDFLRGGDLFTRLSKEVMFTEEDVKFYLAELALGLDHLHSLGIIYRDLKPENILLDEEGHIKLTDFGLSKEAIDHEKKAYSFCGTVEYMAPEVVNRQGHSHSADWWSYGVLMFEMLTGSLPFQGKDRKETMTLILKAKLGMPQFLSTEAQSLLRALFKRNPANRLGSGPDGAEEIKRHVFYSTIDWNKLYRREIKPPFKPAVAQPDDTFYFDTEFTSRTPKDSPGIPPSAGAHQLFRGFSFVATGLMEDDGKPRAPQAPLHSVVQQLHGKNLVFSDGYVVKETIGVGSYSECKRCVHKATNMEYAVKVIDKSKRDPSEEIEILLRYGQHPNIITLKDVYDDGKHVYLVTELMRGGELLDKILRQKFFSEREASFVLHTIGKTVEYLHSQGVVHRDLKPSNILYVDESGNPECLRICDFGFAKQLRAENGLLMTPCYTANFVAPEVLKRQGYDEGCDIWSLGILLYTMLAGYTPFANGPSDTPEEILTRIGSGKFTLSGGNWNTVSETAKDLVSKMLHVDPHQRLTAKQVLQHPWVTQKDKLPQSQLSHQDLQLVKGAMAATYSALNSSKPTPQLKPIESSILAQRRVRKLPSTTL
UniProt P46734, sequence (whole entry, looked up): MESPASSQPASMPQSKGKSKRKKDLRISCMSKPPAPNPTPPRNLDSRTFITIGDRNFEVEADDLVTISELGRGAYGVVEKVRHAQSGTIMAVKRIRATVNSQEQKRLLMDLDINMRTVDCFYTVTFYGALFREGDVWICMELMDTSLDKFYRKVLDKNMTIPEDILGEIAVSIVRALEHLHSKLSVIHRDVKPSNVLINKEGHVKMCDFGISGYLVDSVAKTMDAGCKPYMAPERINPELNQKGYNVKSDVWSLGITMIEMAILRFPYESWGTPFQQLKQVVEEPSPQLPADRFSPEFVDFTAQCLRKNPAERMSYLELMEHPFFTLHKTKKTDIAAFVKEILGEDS
UniProt O14933, sequence (whole entry, looked up): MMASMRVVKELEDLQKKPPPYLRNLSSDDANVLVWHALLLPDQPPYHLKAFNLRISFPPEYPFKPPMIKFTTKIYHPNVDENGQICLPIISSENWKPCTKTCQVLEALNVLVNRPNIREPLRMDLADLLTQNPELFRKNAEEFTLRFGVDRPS
UniProt Q96LR5, sequence (whole entry, looked up): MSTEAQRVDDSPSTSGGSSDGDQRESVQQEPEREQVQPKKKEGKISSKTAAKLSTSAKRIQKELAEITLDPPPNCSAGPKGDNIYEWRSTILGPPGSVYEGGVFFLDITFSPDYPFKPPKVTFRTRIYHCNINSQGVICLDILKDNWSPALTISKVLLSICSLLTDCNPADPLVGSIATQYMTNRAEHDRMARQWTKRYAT
UniProt Q13163, sequence (whole entry, looked up): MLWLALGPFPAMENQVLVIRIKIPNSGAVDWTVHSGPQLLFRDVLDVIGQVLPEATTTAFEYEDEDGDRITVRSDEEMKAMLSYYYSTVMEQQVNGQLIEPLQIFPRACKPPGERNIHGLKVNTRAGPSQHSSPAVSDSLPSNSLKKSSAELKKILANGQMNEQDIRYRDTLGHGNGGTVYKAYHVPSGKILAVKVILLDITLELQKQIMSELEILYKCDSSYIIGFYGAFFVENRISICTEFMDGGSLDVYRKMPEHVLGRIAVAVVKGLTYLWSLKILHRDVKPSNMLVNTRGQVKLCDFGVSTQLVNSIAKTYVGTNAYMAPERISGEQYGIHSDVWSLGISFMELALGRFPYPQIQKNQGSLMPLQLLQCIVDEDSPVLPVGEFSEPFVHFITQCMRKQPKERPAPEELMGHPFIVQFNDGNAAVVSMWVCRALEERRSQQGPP
UniProt P29320, sequence (whole entry, looked up): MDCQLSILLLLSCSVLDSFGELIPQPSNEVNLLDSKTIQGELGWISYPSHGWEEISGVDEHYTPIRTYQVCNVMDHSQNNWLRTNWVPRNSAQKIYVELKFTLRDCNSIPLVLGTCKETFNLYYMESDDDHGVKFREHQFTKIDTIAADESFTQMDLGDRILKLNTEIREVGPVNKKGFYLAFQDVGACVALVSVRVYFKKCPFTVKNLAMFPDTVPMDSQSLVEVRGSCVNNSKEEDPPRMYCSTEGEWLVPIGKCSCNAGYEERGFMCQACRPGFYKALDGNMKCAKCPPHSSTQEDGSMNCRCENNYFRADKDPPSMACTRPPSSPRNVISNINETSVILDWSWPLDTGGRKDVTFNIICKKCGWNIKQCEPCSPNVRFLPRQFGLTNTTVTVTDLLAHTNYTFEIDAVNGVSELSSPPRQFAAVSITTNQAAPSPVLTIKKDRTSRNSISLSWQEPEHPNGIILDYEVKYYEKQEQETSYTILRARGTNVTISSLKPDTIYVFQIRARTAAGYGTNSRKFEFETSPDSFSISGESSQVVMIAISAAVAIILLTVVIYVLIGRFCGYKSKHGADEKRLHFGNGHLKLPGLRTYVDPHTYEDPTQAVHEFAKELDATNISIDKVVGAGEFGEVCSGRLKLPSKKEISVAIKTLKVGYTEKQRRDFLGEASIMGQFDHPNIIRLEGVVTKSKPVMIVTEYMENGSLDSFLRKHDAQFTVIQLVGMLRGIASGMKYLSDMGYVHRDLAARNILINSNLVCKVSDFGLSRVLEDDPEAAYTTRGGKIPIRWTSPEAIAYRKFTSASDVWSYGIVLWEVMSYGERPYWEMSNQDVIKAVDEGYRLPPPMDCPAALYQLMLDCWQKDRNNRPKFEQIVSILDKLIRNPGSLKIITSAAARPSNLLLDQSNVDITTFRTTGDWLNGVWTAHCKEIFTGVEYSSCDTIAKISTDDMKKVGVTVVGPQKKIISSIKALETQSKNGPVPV
UniProt Q8TD08, sequence (whole entry, looked up): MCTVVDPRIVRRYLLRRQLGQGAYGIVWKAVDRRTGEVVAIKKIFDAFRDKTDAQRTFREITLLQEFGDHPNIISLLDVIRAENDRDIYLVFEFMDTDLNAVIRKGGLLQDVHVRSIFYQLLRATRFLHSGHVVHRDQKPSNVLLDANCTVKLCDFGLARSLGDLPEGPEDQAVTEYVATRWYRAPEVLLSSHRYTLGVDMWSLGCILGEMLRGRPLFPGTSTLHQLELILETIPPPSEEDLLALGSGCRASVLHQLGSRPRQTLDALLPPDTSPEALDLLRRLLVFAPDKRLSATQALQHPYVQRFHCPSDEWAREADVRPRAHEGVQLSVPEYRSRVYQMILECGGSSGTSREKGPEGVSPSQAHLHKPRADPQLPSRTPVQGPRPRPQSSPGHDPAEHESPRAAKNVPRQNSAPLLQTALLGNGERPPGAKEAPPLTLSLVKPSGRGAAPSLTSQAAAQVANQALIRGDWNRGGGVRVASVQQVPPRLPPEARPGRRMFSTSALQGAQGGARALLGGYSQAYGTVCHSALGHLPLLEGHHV
UniProt P62256, sequence (whole entry, looked up): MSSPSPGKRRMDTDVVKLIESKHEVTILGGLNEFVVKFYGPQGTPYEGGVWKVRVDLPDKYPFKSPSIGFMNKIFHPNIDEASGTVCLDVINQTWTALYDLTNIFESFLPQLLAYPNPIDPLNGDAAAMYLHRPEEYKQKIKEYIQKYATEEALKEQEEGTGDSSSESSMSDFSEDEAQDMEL
UniProt P51965, sequence (whole entry, looked up): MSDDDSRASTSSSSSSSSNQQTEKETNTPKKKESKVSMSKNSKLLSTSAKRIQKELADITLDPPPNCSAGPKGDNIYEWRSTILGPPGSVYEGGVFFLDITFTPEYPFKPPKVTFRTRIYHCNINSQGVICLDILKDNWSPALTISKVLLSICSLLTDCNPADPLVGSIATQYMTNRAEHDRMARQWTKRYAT
UniProt Q15819, sequence (whole entry, looked up): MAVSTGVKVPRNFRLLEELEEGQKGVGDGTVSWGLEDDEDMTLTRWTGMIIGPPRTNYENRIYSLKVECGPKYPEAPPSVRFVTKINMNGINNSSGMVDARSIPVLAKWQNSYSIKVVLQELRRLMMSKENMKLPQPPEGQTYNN

Sample 1
Compound: CNC(=O)Nc1ccc2c(c1)[C@@]1(CC2)OC(=O)N(CC(=O)N(Cc2ccc(F)cc2)[C@@H](C)C(F)(F)F)C1=O
Observed: cell-free assay
Technique: competition with immobilised ligand
Concentration: 1 µM
The remaining binding was 84% (CLK3 (Homo sapiens, UniProt P49761)).
The remaining binding was 89% (PIM3 (Homo sapiens, UniProt Q86V86)).
It gave 93% for remaining binding (MAPK15 (Homo sapiens, UniProt Q8TD08)).
It gave 100% for remaining binding (EPHA3 (Homo sapiens, UniProt P29320)).
It gave 87% for remaining binding (MAP2K3 (Homo sapiens, UniProt P46734)).
It gave 89% for remaining binding (MAP2K5 (Homo sapiens, UniProt Q13163)).
For STK33 (Homo sapiens, UniProt Q9BYT3): remaining binding read 100%.
For SIK3 (Homo sapiens, UniProt Q9Y2K2): remaining binding read 100%.
For NEK1 (Homo sapiens, UniProt Q96PY6): remaining binding read 100%.
The remaining binding was 100% (Ribosomal protein S6 kinase alpha-1, C-terminal kinase domain (RPS6KA1, Homo sapiens, UniProt Q15418)).
It gave 96% for remaining binding (Ribosomal protein S6 kinase alpha-1, N-terminal kinase domain (RPS6KA1, Homo sapiens, UniProt Q15418)).

Sample 2
Target: Hepatocyte nuclear factor 3-alpha (Foxa1, Mus musculus, UniProt P35582, residues 1-468, full length assumed)
UniProt P35582, sequence (whole entry, looked up): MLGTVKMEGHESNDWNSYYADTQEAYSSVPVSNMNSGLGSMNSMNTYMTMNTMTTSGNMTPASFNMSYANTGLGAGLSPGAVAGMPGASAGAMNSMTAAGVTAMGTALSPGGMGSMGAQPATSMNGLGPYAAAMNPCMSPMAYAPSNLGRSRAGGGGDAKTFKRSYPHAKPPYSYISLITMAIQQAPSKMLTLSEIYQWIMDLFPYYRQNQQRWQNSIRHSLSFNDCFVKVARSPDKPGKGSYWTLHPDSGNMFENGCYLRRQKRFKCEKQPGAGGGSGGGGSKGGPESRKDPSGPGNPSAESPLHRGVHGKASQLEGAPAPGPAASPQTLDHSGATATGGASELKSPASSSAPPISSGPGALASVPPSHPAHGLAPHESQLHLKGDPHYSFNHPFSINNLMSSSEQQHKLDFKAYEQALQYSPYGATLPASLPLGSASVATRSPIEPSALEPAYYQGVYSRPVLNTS
Technique: EMSA with sequencing
Molecule type: double-stranded DNA, one strand shown
Matrix: in vitro
Concentration: 10 and 20 nM
Notes: whole designed probe, mean of two concentrations, ends assumed
Reference: negative control set to 0
Reading: higher = stronger binding
Under “normalised bound fraction”, `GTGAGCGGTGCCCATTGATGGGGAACTAGGCCAGCGGTTTCTTGTATAAAGGAAACAAAAGTCATATAATTCCTTTTACTAAGGTCACTGACCTTTGCAGCTTCTTCCACGATGAGAGAGTAATCTGAAGATGACTAAGTGTTTTTGACATCCAAAGTCACCCACAGCCAGAACCAGAGTCTGGGAGAAGTGTATTTTGGACATCGTGACCTCAACTATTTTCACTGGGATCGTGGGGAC` is recorded as -0.0622 ratio.
`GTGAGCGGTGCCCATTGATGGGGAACATCTTCCCCCTCTTCCTTGCCCCACCAGCTCACCTTCCCGGGTTATTTGCAGATAGGAAAATAAATAAAGCCGGCATTCGTTAACGCAGTTCACGCGCATACTGCTGTTTGCTCTGCATGAATCATGGTCCTTACGCGACGCCAGGCTCCGGGAGAGCAAAGCACCGTGTCAGGCGCATGATCCGGGGTGGCCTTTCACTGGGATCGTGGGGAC` — result for “normalised bound fraction”: 0.357 ratio.
Under “normalised bound fraction”, `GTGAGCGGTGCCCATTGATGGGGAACTAACCGGAGCGTGCACACCCGCCTGCGAGGCTGACCCGAGCGCGTCCCACCCAAGGTCGCCCAGCCCCGCGGGCGTTTACTTTTCAAAGGTCGTGTGTACACAGTCTGAGCCGGAGCTGCCCCTTCACTTCTGGAGCCTCGCCCAACTTCTCACCCTCGGCTCGCCCGCCGGCGCAGCCCCTGGGAGTTCCGTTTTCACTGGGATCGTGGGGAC` is recorded as 0.217 ratio.
Under “normalised bound fraction”, `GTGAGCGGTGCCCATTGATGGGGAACATGATCCTCCCTTTCTTCAGCTGTCCAATGGGTTAATCATCCCAAGTCCCCCAGCCTTGATGACAATCCAGGGGGCTGGGGTATATCTGCCATAGATTGCCTTTCCCTTGCTTCTCTCTGAGTGATTGGCAGACAGCAGGCCTCTGAATGCCATCCTCCCCAGCATTCTTGGCAAGGCGGCTGAAACTCCAGCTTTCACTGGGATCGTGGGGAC` is recorded as -0.0671 ratio.
Under “normalised bound fraction”, `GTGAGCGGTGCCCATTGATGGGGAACAGATTACAAGGTCCTAGAAATTTAACATGCAAAATCTGGAGAAGATAGAGAGTAGGGTGGGGTTGTTGAAAGGTTTTTAGTAGGGTTTTCCAAAGTAAACATAGTCAGGTTATTTTAAAAAATAAAATATAACTTGTTAGCTTGAAAGTAGGAGAAAAAAATTTAAAAAAATAAAATTTCAGTGTTAGATATATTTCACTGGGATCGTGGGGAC` is recorded as 0.414 ratio.
`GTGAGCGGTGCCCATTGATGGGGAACATCTTCCCCCTCTTCCTTGCCCCACCAGCTCACCTTCCCGGGTTGTTTACTTTGAGTATTTATTTTCAAGCCGGCATTCGTTAACCCTCTTCTGGCGCAAACTGCTGTTTGCTCTGGATGAATCATGGTCCTTTGGCGACGCCAGGCTCCGGGAGAGCAAAGCACCGTGTCAGGGCCATGATCCGGGGTGGCCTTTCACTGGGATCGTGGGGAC`: “normalised bound fraction” 0.349 ratio.
`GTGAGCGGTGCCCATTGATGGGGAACATCTTCCCCCTCTTCCTTGCCCCACCAGCTCACCTTCCCGGGTTATTTGCAGATAGGAAAATAAATAAAGCCGGCATTCGTTAACGCAGTTCTGGCGCAAACTGCTGTTTGCTCTGGATCTAACATGGTCCTTTGGCGACGCCAGGCTCCGGGAGAGCAAAGCACCGTGTCAGGGCCATGATCCGGGGTGGCCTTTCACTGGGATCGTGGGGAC`: “normalised bound fraction” 0.347 ratio.
Under “normalised bound fraction”, `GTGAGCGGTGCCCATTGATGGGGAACATTGTACCTAGCTTCAATACAGTTATCTAAACCAGGAAAATGGTTTTCTGACTGTATTAGTCGCCTAGGGCTGCTTTAATAGGTCTTGCAAAAGTACTCTTATACTTGTCTTATGACTCAGCAATTCCACCGTTAGTATTTACCCCAAAATGATAAGCAATTCTGCAAATATGCTTCAGTTTACATATTTAGATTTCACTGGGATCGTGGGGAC` is recorded as 0.123 ratio.

Sample 3
Molecule: QHHELTSLFECPVCFDYVLPPILQCQAGHLVCNQCRQKLSCCPTCRGALTPSIRNL (SIAH2 RING domain (UniProt O43255))
Technique: yeast two-hybrid
Matrix: yeast
Notes: mostly zero background
Reference: not given
Reading: higher = stronger interaction
UBE2E2 UBC core domain (UniProt Q96LR5) — “lacZ reporter activity”: 0.
The “lacZ reporter activity” was 0 (UBE2E1 UBC core domain (UniProt P51965)).
It gave 0 for “lacZ reporter activity” (UBE2Q2 UBC core domain (UniProt Q8WVN8)).
It gave 0 for “lacZ reporter activity” (UBE2H UBC core domain (UniProt P62256)).
It gave 0 for “lacZ reporter activity” (UBE2V2 UBC core domain (UniProt Q15819)).
For UBE2L6 UBC core domain (UniProt O14933): “lacZ reporter activity” read 0.

Single results of other studies
With `CC(=O)[C@H]1CC[C@H]2[C@@H]3CCC4=CC(=O)CC[C@]4(C)[C@H]3CC[C@]12C` the inhibition was 8.4% (Sarcocystis neurona; parasite growth; 10 µM).
